Earlier results, collected from citations in different studies.
Compare with care: the assays were run in different laboratories. ± marks the error that the study gave.
Sequence of UniProt P47746 (whole entry, looked up): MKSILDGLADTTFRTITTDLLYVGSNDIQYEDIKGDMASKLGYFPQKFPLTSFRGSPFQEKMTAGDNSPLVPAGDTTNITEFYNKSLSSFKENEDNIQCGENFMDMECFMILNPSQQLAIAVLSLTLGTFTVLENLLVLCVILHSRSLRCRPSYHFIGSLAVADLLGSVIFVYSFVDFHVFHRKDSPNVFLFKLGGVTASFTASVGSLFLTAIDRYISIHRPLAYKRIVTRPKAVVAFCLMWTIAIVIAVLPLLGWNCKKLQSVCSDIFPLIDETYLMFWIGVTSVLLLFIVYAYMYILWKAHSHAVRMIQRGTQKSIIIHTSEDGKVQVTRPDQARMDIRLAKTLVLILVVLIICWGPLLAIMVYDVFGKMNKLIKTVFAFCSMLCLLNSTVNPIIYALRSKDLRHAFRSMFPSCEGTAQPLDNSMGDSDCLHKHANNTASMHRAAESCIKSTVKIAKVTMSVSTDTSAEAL
Sequence of UniProt P28222 (whole entry, looked up): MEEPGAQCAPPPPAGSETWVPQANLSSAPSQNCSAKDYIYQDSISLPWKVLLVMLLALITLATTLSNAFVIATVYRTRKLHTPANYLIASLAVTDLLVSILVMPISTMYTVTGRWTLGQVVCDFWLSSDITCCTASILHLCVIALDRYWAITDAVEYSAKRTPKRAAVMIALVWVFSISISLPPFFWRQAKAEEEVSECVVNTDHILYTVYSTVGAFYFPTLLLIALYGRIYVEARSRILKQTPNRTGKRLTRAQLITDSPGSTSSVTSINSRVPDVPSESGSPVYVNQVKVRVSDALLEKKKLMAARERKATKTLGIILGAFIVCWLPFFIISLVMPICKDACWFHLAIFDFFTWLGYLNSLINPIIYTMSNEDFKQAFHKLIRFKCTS
Sequence of UniProt P23975 (whole entry, looked up): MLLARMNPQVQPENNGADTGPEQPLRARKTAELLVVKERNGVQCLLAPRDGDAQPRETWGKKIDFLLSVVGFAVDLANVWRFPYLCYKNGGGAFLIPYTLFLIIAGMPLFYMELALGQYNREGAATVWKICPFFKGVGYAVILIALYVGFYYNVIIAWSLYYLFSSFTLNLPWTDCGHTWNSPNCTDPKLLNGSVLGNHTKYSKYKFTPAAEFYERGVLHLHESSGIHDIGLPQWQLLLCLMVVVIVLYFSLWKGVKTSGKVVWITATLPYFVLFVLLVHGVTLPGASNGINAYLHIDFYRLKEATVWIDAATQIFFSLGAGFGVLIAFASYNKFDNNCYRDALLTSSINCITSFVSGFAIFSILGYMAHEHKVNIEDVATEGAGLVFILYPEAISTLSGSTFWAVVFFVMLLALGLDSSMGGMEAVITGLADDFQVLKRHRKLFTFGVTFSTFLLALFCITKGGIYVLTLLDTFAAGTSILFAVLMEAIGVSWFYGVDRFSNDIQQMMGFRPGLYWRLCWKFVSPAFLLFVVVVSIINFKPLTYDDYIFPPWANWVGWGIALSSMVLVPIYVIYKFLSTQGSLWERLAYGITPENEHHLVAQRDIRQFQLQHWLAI
Sequence of UniProt Q9R0C9 (whole entry, looked up): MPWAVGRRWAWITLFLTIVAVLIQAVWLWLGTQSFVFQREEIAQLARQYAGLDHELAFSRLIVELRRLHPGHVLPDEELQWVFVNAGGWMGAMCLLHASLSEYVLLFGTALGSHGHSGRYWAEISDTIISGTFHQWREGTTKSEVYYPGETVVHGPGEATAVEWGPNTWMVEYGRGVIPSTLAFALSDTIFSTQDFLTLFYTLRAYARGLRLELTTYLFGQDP
Sequence of UniProt Q9JI35 (whole entry, looked up): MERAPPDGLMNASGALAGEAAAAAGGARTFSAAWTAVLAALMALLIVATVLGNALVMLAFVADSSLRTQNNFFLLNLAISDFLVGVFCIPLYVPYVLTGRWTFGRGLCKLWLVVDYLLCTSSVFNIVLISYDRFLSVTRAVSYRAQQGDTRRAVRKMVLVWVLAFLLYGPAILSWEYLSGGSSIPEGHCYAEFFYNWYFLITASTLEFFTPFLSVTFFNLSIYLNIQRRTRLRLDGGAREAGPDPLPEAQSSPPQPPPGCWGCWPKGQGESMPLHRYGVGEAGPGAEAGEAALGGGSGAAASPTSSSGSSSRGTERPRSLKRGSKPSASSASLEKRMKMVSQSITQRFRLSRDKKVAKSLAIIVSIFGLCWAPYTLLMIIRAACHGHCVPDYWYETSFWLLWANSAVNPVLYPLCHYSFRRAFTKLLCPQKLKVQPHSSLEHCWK

CN1C(=O)CN=C(c2ccccc2)c2cc(Cl)ccc21 — Ki (GABA-A receptor benzodiazepine site (zebrafish); zebrafish whole brain membranes; added: [3H]flunitrazepam): 0.023 ± 0.004 µM
C[C@]12CC[C@H]3[C@@H](CCC4=CC(=O)CC[C@@]43C)[C@@H]1CC[C@@H]2O — Ki (human AKR1D1; substrate): 14.5 ± 5.8 µM
CCCCCn1cc(C(=O)c2cccc3ccccc23)c2ccccc21 — Ki (cannabinoid CB1 receptor): 0.009 µM
(−)-cocaine hydrochloride — Ki (dopamine transporter, rat; binding; striatum; added: [3H]WIN35,428): 0.077 µM
C=CCN(CC=C)CCc1c[nH]c2ccc(Br)cc12 — Ki (Histamine H3 receptor (Cavia porcellus, UniProt Q9JI35)): 1.5 µM
CCCCCn1cc(C(=O)c2ccc(CC)c3ccccc23)c2ccccc21 — Ki (cannabinoid CB1 receptor): 0.00046 µM
C[C@]12CCC(=O)C=C1CC[C@@H]1[C@@H]2CC[C@]2(C)C(=O)CC[C@@H]12 — Ki (human AKR1D1; substrate): 4.3 ± 1.3 µM
CNC(C)Cc1ccc2c(c1)OCO2 (stereo not drawn) — Ki (alpha2-adrenoceptor; binding; frontal cortex homogenate; added: [3H]p-aminoclonidine): 3.2 µM
COC(=O)[C@H]1C(c2ccc(I)cc2)C[C@@H]2CC[C@H]1N2C (stereo partly drawn) — Ki (Transporter (Slc6a2, Rattus norvegicus, UniProt Q63380); reuptake, inhibitor; rat brain synaptosomes): 0.00589 ± 0.00053 µM
COC(=O)[C@H]1[C@@H](c2ccc(F)cc2)C[C@@H]2CC[C@H]1N2C — Ki (SLC6A2 (Homo sapiens, UniProt P23975)): 0.026 µM
CN1C(=O)CN=C(c2ccccc2F)c2cc([N+](=O)[O-])ccc21 — Ki (TSPO; added: [3H]Ro5-4864): 0.138 µM
C=CCN(CC=C)CCc1c[nH]c2ccccc12 — Ki (HTR1B (Homo sapiens, UniProt P28222); binding; cloned human receptor; added: [3H]GR125743): > 10 µM
Oc1ccc2c3c1O[C@H]1c4[nH]c5c(c4C[C@@]4(O)[C@@H](C2)N(CC2CC2)CC[C@]314)C[C@@]1(O)[C@H]2Cc3ccc(O)c4c3[C@@]1(CCN2CC1CC1)[C@H]5O4 — Ki (mu opioid receptor): 0.0012 to 0.102 µM
C=CCN(CC=C)CCc1c[nH]c2ccc(F)cc12 — Ki (Sigmar1 (Rattus norvegicus, UniProt Q9R0C9)): 0.086 µM
CCCCCCC(C)(C)c1ccc([C@@H]2C[C@H](O)CC[C@H]2CCCO)c(O)c1 — Ki (Cnr1 (Mus musculus, UniProt P47746); radioligand binding; mouse brain homogenate; added: [3H]CP radioligand): 0.00026 ± 0.0001 µM

For quick reference, copied from above:
C[C@]12CC[C@H]3[C@@H](CCC4=CC(=O)CC[C@@]43C)[C@@H]1CC[C@@H]2O — Ki (human AKR1D1; substrate): 14.5 ± 5.8 µM
